Experimental data collected from several papers.
Compare with care: the assays were run in different laboratories. “And” joins repeats or separate records; there may be more than shown. ± gives the spread as reported.

CS(=O)(=O)c1ccc(-c2nnc(/C=C/c3nnc(-c4ccc(C#N)cc4)o3)n2-c2ccccc2Cl)nc1  normalized enrichment score (RNA-seq GSEA, refers to: FALLER_ENTEROCYTE_MOUSE; organoids, small intestinal, Apc Q1405X, mouse; dose not given, 3 days, wild-type organoids; reference: DMSO, direction not given): 2.91
CN1CCN(S(=O)(=O)c2cc([N+](=O)[O-])ccc2N(CCOS(C)(=O)=O)CCOS(C)(=O)=O)CC1  EFS delay (T-C) (NSG mice, sample BC PDX; intraperitoneal, 25 mg/kg weekly x3; reference: vehicle): 32.3 days
Cc1cccc(C)c1NC(=O)C1CCCCN1 (stereo not shown)  conduction velocity (Aδ-fiber conduction, ex vivo single-fiber recording; C57BL/6 mouse, sciatic nerve trunk, PBS; 15 mM, 10 min, pH 7.4): no effect
OC1CCN(c2ncnc3[nH]cc(-c4cccc(Cl)c4)c23)CC1  phospho-MOB1 level (Western blot, refers to: MOB1 Thr35 phosphorylation; C57BL/6 mice, liver; intraperitoneal, 20 mg/kg, 1 h; reference: vehicle): decreased
C=CCNc1c(O)cc2c(O)c1C[C@@H](C)C[C@H](OC)[C@H](O)[C@@H](C)/C=C(\C)[C@H](OC(N)=O)[C@@H](OC)/C=C\C=C(/C)C(=O)N2  patients with stable disease (RECIST v1.0; human soft tissue sarcoma; concentration not given, stable 12 weeks): 18%
C=CC(=O)Nc1cc(Nc2ncc(Cl)c(Nc3ccccc3C(=O)C(=O)N(C)C)n2)c(OC)cc1N1CCN(C)CC1  patients with progressive disease (RECIST v1.1 best response; human EGFR T790M NSCLC; oral, 100 mg/day, per-protocol set): 66.7%
COc1ccc2c(c1)CC[C@@H]1[C@@H]2CC[C@]2(C)[C@@H](NCCCCCCN3C(=O)C=CC3=O)CC[C@@H]12  inhibition (calcium response, plateau; N2a, mouse; 1 µM, added: BzATP 300 µM): 18%
Cc1cn(-c2cc(NC(=O)c3ccc(C)c(Nc4nccc(-c5cccnc5)n4)c3)cc(C(F)(F)F)c2)cn1  ADAS-Cog score (Homo sapiens; 150 mg, 6 months; direction not given): 32.1 ± 9.1
O=S(=O)([O-])C(F)(F)C(F)(F)C(F)(F)C(F)(F)C(F)(F)C(F)(F)C(F)(F)C(F)(F)F.[K+]  protein expression (Western blot, refers to: Aldh1a1; EtOH-fed mice, liver; dose not given; reference: efavirenz): increased
CC[C@@H](C)[C@@H](NC(=O)[C@@H](Cc1ccc(O)cc1)NC(=O)[C@H]1CCCN1C(=O)[C@@H](CCCNC(=N)N)NC(=O)[C@H](N)Cc1c[nH]cn1)C(=O)N[C@H](C)C(=O)N[C@H](Cc1c[nH]cn1)C(=O)N[C@H](CCCNC(=N)N)C(=O)N[C@H](CCCCNC(=O)c1cccc(S(=O)(=O)F)c1)C(=O)N[C@H](Cc1ccc(O)cc1)C(=O)N[C@H](CO)C(=O)N[C@H](Cc1ccccc1)C(N)=O  IFN-γ+ CD8+ T cell frequency (ex vivo flow cytometry; B16 tumour-bearing mice, spleen; dose not given): 5.87% and 6.61% and 7.7% and 5.66% and 7.16%
CC[C@H](C)[C@@H]1NC(=O)[C@@H]2CCCN2C(=O)[C@H](CC(C)C)NC(=O)[C@H](CC(C)C)NC(=O)CNC(=O)[C@@H](NC(=O)[C@@H](NC(=O)[C@H](CC(=O)O)NC(=O)CNC(=O)[C@@H](NC(=O)[C@H](C)NC(=O)CNC(=O)[C@H](CCCCN)NC(=O)[C@H](CC(C)C)NC(=O)[C@H](CC(C)C)NC(=O)[C@H](CCCCN)NC(=O)CNC(=O)[C@@H](NC(=O)[C@@H](N)CC(C)C)C(C)C)C(C)C)C(C)C)CSSC[C@@H](C(=O)O)NC1=O  log2 fold change (RNA-seq, refers to: Usb1; mouse, traumatic brain injury model, frontal cortex and hippocampus; dose not given; reference: TBI alone): -0.883
Clc1cc2c(cc1Cl)Oc1cc(Cl)c(Cl)cc1O2  mRNA level (RNA-Seq, refers to: Ptgfr; female Sprague-Dawley rat, liver; 10 µg/kg; reference: vehicle): 1.6 fold
CC(C)C1CCC(N2CCC(N3C(=O)C(=O)c4ccccc43)CC2)CC1 (stereo not shown)  heart rate (conscious Sprague-Dawley rat; intravenous bolus, 100 nmol/kg): decreased
CCCCC1CNC2CCc3ccc(OC)cc3C12.Cl (racemic)  differentially expressed genes count (RNA sequencing; SAMP8 mice, hippocampus; intracerebroventricular, 1.0 µg/µL, 24 h; reference: vehicle): 316
Cc1nc(Nc2ccc(CC(=O)O)cc2)nc(Nc2ccc(F)c(C(F)(F)F)c2)c1C  mRNA level (refers to: FASN; C57BL/6J mice, high-fat diet, liver; intraperitoneal, 0.3 mg/kg daily, 60% fat diet 12 weeks, dosed last four; reference: vehicle): no effect
C[C@H]1O[C@@H](O[C@H]2CC[C@@]3(C)[C@@H](CC[C@]4(C)[C@@H]3C=C[C@]35OC[C@@]6(CCC(C)(C)C[C@H]63)[C@@H](O)C[C@]54C)[C@]2(C)CO)[C@H](O)[C@@H](O[C@@H]2O[C@H](CO)[C@@H](O)[C@H](O)[C@H]2O)[C@H]1O  steatosis area (H&E staining; hepatic SIRT1 knockdown mice, chronic-plus-binge ethanol, liver; dose not given, AAV8-TBG-shRNA, high dose): 21.8% and 21.4% and 23.6% and 19.4% and 17.8% and 20.7% and 21.9% and 22.6%
NNc1ccccc1  normalised absorbance (hydrazine ligation kinetics, absorbance; concentration not given, 50 s, added: 2-formylphenylboronic acid): 0.92
CCCCC1(CCCC)CN(c2ccccc2)c2cc(SC)c(OCC(=O)N[C@@H](C(=O)NCC(=O)O)c3ccccc3)cc2S(=O)(=O)C1  serum HDL-C (refers to: HDL cholesterol; human, serum; 10 mg once daily, day 14): 47.5 mg/dL
FC(F)(F)c1ccc2c(c1)[C@@H]1CNC[C@H]2C1  ethanol intake (two-bottle choice; Wistar rat, intermittent 20% ethanol access; subcutaneous, 1 mg/kg, 6 h): 3 ± 0.2 g/kg
C[C@]1(CO)Cc2ncn(-c3ccc(C#N)c(Cl)c3)c2C(=O)O1  urinary sodium excretion 0-24 h (Chinese subjects; 80 mg single dose): 159 mmol
[131I-].[Na+]  indeterminate response (ATA response criteria; human, papillary thyroid cancer, distant metastases; 3700 MBq): 16.5%
CC[C@H](C)[C@H](NC(=O)[C@H](CCC(=O)O)NC(=O)[C@H](CCCNC(=N)N)NC(=O)[C@H](CCCNC(=N)N)NC(=O)[C@H](CCCNC(=N)N)NC(=O)[C@H](CCC(N)=O)NC(=O)[C@H](CCCNC(=N)N)NC(=O)[C@H](CCCNC(=N)N)NC(=O)[C@H](CCCCN)NC(=O)[C@H](CCCCN)NC(=O)[C@H](CCCNC(=N)N)NC(=O)CNC(=O)[C@H](Cc1ccc(O)cc1)NC(C)=O)C(=O)N[C@@H](CC(=O)O)C(=O)N[C@@H](Cc1c[nH]cn1)C(=O)N[C@@H](CC(=O)O)C(N)=O  Iba1-positive microglia number (db/db mouse, hippocampal CA1; intravenous, dose not given, weekly): decreased

Excerpt of the above:
CC(C)C1CCC(N2CCC(N3C(=O)C(=O)c4ccccc43)CC2)CC1 (stereo not shown)  heart rate (conscious Sprague-Dawley rat; intravenous bolus, 100 nmol/kg): decreased
C[C@H]1O[C@@H](O[C@H]2CC[C@@]3(C)[C@@H](CC[C@]4(C)[C@@H]3C=C[C@]35OC[C@@]6(CCC(C)(C)C[C@H]63)[C@@H](O)C[C@]54C)[C@]2(C)CO)[C@H](O)[C@@H](O[C@@H]2O[C@H](CO)[C@@H](O)[C@H](O)[C@H]2O)[C@H]1O  steatosis area (H&E staining; hepatic SIRT1 knockdown mice, chronic-plus-binge ethanol, liver; dose not given, AAV8-TBG-shRNA, high dose): 21.8% and 21.4% and 23.6% and 19.4% and 17.8% and 20.7% and 21.9% and 22.6%
